# Assay results gathered from unrelated publications.
# Compare with care: the assays were run in different laboratories. Numbers after ± are the reported error.
SMILES,assay,test system,setting,how to read,quantity,result
COc1cc(NC(C)=O)c2c(c1O)-c1c(OC)c(OC)cc3c1C(C2)N(C)CC3 (stereo not drawn),,rat liver homogenate,"5 µg/mL, time not given, three freeze-thaw cycles",,remaining compound,101.1 ± 0.7%
CC(=O)N[C@H](CCNC(=O)c1cc(NC(=O)c2cc(NC(=O)c3cc(NC(=O)c4nccn4C)cn3C)cn2C)cn1C)C(=O)Nc1cn(C)c(C(=O)Nc2cc(C(=O)Nc3cc(C(=O)Nc4cc(C(=O)NCCCN(C)CCCN[14C](=O)c5cccc([14C](=O)O)c5)n(C)c4)n(C)c3)n(C)c2)n1,,"NSG male mice, LNCaP xenograft, LNCaP tumour","intraperitoneal, 20 nmol per animal, 24 h",reference: LNCaP tumour over U-251 tumour,tissue concentration ratio,2.3 fold
COc1ccc(/C=C/c2ccc(-c3ccc(C)cn3)nc2)cc1,,acetonitrile,"zinc(II) complex, added: quinine bisulfate reference",,fluorescence quantum yield,0.46
NC[C@@H](C(=O)Nc1ccc(-c2cn[nH]c2)cc1)c1ccccc1,OECD 405 eye irritation,"New Zealand White rabbit, eye","topical, 0.1%, 24 h (day 2)",direction not given,total eye irritation score,0
CC(C)(Sc1cc[n+]([O-])cc1-c1ccc(C#N)c2ccccc12)C(=O)OC1OC(C(=O)O)C(O)C(O)C1O (stereo not drawn),,"adult men, plasma","oral, 15 mg verinurad, moderate renal impairment",reference: normal renal function,AUC(0-inf) increase,141%
CC[C@H](C)[C@H](NC(=O)[C@@H]1CCCN1C(=O)CNC(=O)[C@H](Cc1ccccc1)NC(=O)[C@H](CC(N)=O)NC(=O)[C@H](CC(N)=O)NC(=O)[C@H](CO)NC(=O)[C@H](CO)NC(=O)[C@H](Cc1c[nH]cn1)NC(=O)[C@@H](NC(=O)[C@H](CC(C)C)NC(=O)[C@H](Cc1ccccc1)NC(=O)[C@H](CC(N)=O)NC(=O)[C@H](C)NC(=O)[C@H](CC(C)C)NC(=O)[C@H](CCCNC(=N)N)NC(=O)[C@H](CCC(N)=O)NC(=O)[C@@H](NC(=O)[C@H](C)NC(=O)[C@@H]1CSSC[C@H](NC(=O)[C@@H](N)CCCCN)C(=O)N[C@@H](CC(N)=O)C(=O)N[C@@H]([C@@H](C)O)C(=O)N[C@@H](C)C(=O)N[C@@H]([C@@H](C)O)C(=O)N1)[C@@H](C)O)C(C)C)C(=O)N[C@@H](CC(C)C)C(=O)N[C@@H](CO)C(=O)N1CCC[C@H]1C(=O)N[C@H](C(=O)N[C@@H](CC(N)=O)C(=O)N[C@H](C(=O)NCC(=O)N[C@@H](CO)C(=O)N[C@@H](CC(N)=O)C(=O)N[C@H](C(=O)N[C@@H](Cc1ccc(O)cc1)C(N)=O)[C@@H](C)O)C(C)C)[C@@H](C)O,thioflavin T fluorescence,phosphate buffer,"16 µM, pH 7.4, 25 °C",,half-time of amyloid formation,16.2 ± 1 h
O=c1c(/C=N/NC(=S)N/N=C/c2ccccn2)coc2ccccc12,cyclic voltammetry,anhydrous DMF,"Cu2+ complex, glassy carbon electrode",,peak potential separation,0.123 mV
CC[N+]1(Cc2ccc3ccc(O)c(C#N)c3n2)CCCC1CNC(=O)c1cc(S(N)(=O)=O)ccc1OC (stereo not drawn),,KMOPS buffer,"0.1 mM, pH 7.2",,λmax,372 nm
CC(C)[C@H](NC(=O)CNC(=O)[C@H](CCC(N)=O)NC(=O)[C@H](C)N)C(=O)O,LC-MS/MS,"human, plasma","intravenous, 20 mg/kg three times daily, day 2, first dose, 10 min infusion, geometric mean",,AUC(0-last),393 µg·h/L
CNC(=O)c1ccc(N2CCN(Cc3ccc4nc(C)c(=O)[nH]c4c3F)CC2)c([18F])n1,,rat plasma,90 min,,remaining intact tracer,> 95%
CCC(CC)CNC(=N)NC(=N)NCCCCCCNC(=N)NC(=N)NCC(CC)CC,,Caco-2,"5 µM, 2 h",,efflux ratio,1.95
CC(=O)[CH](C(C)=O)[Pt-2]1([S+](C)C)[O]C(C)=CC(C)=[O+]1 (stereo not drawn),,"rat, blood","intravenous, 5 mg/kg, single dose",,AST,86.7 ± 9.2 U/L
C=C(C)C(=O)Nc1ccc(-c2c(-c3ccc(Oc4nccc(C)n4)cc3)c3c(N)ncnc3n2C)cc1,,"cynomolgus monkey, plasma","intravenous, dose not given",,clearance,1.7 mL/min/kg
CC(C)(Sc1ccncc1-c1ccc(C#N)c2ccccc12)C(=O)OC1OC(C(=O)O)C(O)C(O)C1O (stereo not drawn),,"adult men, plasma","oral, 15 mg verinurad, moderate renal impairment",reference: normal renal function,Cmax increase,112%
CCCOc1ccc(S(N)(=O)=O)cc1-c1nc2c(CCC)nn(C)c2c(=O)[nH]1,,"healthy male humans, plasma","oral, 200 mg udenafil, udenafil alone",reference: metabolite AUC(0-t) over udenafil AUC(0-t),metabolic ratio,1.05 ± 0.37
CC(=O)N[C@H](CCCCN)C(=O)N[C@H](CC(C)C)C(=O)N[C@H](CCCCN)C(=O)N[C@H](CO)C(=O)N[C@H](CC(C)C)C(=O)N[C@H](CC(C)C)C(=O)N[C@H](CCCCN)C(=O)N[C@@H](C(=O)N[C@H](CC(C)C)C(=O)N[C@H](CO)C(=O)N[C@H](CCCCN)C(=O)N[C@H](C)C(=O)N[C@H](CCCCN)C(=O)N[C@H](CCCCN)C(=O)N[C@H](CCCCN)C(=O)N[C@H](CCCCN)C(=O)N[C@H](CC(C)C)C(=O)N[C@H](CCCCN)C(=O)N[C@@H](C(=O)N[C@H](CC(C)C)C(=O)N[C@H](CC(C)C)C(=O)N[C@H](CCCCN)C(=O)N[C@H](C)C(=O)N[C@H](CC(C)C)C(=O)N[C@H](CO)C(=O)N[C@H](CCCCN)C(N)=O)[C@H](C)O)[C@H](C)O,RP-HPLC temperature profiling,,"pH 2, 5-80 °C, unit not given",reference: control peptide,self-association parameter,5.17
CC[C@H](C)[C@H](NC(=O)[C@H](Cc1ccccc1)NC(=O)[C@H](CC(=O)O)NC(=O)[C@H](CCCCN)NC(=O)[C@H](Cc1ccccc1)NC(=O)[C@H](Cc1ccccc1)NC(=O)[C@H](CCCCN)NC(=O)[C@H](CN)NC(=O)[C@H](CC(C)C)NC(=O)[C@H](CCCNC(=N)N)NC(=O)[C@H](CCSC)NC(=O)[C@H](C)N)C(=O)N[C@@H](CC(C)C)C(=O)N[C@@H](CCC(N)=O)C(=O)N[C@@H](CCCNC(=N)N)C(=O)N[C@@H](CCCCN)C(=O)N[C@@H](CCCCN)C(=O)O,circular dichroism,20% TFE in PBS,"200 µM, pH 7.4, 25 °C",,helicity,18.4%
C#CCn1c2ccc([N+](=O)[O-])cc2c(=O)n1Cc1ccccc1,resazurin,"peritoneal macrophages, BALB/c mice","48 h, 10% FBS",,CC50,4.3 ± 0.4 µM
CC(=O)N[C@H](CSSC[C@H](N)C(=O)O)C(=O)N[C@H](C)C(=O)N[C@H](CCCNC(=N)N)C(=O)N[C@H](CCCNC(=N)N)C(=O)N[C@H](CCCNC(=N)N)C(=O)N[C@H](C)C(=O)N[C@H](CCCNC(=N)N)C(N)=O,ELISA,"healthy male human, serum",all dose levels,,anti-drug antibodies,not detected
NC12CNCCNCC(NCc3ccc(CNC(=O)CCCC(=O)NCc4ccc(-c5nncnn5)cc4)cc3)(CNCCNC1)CNCCNC2.[64Cu+2],OLINDA dosimetry,osteogenic cells,"pretargeting, 24-h interval",,mean absorbed dose,0.0897 rad/mCi
CC(C)[C@H](NC(=O)[C@@H]1CCCN1C(=O)[C@H](CCCNC(=N)N)NC(=O)[C@H](CS)NC(=O)[C@H](Cc1c[nH]c2ccccc12)NC(=O)[C@H](CCCNC(=N)N)NC(=O)[C@@H](Cc1ccccc1)NC(=O)[C@H](Cc1c[nH]cn1)NC(=O)[C@H](CCC(=O)O)NC(=O)[C@H](CS)NC(=O)[C@H](CS)NC(=O)CNC(=O)[C@@H]1CC(=O)N[C@@H](CCCNC(=N)N)C(=O)NCC(=O)N[C@@H](CC(=O)O)C(=O)N[C@H](Cc2ccc(O)cc2)C(=O)N1)C(N)=O [technetium-99m labelled],,"C57 mouse, female, B16/F1 melanoma","intravenous, 0.037 MBq, 24 h",reference: tumour over kidneys,tumour to tissue ratio,1.72
CC(C)(O)c1ccc(N2Cc3c(ccnc3-c3ccc(F)cc3OCC(F)(F)F)C2=O)cc1,,"male C57BL/6 mouse, plasma","oral, 10 mg/kg, single dose",,MRT,8.1 h
CC[C@H](C)[C@H](NC(=O)[C@H](Cc1ccccc1)NC(=O)[C@H](CC(=O)O)NC(=O)[C@@H]1CNC(=O)NCCCC[C@H](NC(=O)[C@H](CC(C)C)NC(=O)[C@H](CCCNC(=N)N)NC(=O)[C@H](CCSC)NC(=O)[C@H](C)N)C(=O)N[C@@H](CCCCN)C(=O)N[C@@H](Cc2ccccc2)C(=O)N[C@@H](Cc2ccccc2)C(=O)N1)C(=O)N[C@@H](CC(C)C)C(=O)N[C@@H](CCC(N)=O)C(=O)N[C@@H](CCCNC(=N)N)C(=O)N[C@@H](CCCCN)C(=O)N[C@@H](CCCCN)C(=O)O,circular dichroism,20% TFE in PBS,"200 µM, pH 7.4, 25 °C",,helicity,33.1%
CN(Cc1ccc(F)cc1)Cc1cc(=O)oc2cc(O)ccc12,,HepG2 cell medium,"0.5 mM, 30 min",,remaining intact compound,> 99%

# For quick reference, copied from above:
SMILES,assay,test system,setting,how to read,quantity,result
CC(C)(Sc1ccncc1-c1ccc(C#N)c2ccccc12)C(=O)OC1OC(C(=O)O)C(O)C(O)C1O (stereo not drawn),,"adult men, plasma","oral, 15 mg verinurad, moderate renal impairment",reference: normal renal function,Cmax increase,112%
CCCOc1ccc(S(N)(=O)=O)cc1-c1nc2c(CCC)nn(C)c2c(=O)[nH]1,,"healthy male humans, plasma","oral, 200 mg udenafil, udenafil alone",reference: metabolite AUC(0-t) over udenafil AUC(0-t),metabolic ratio,1.05 ± 0.37
